Measured values collected from several papers.
Each line is one published result; not all experiments were run side by side. ± marks the error that the study gave.
B1: enzyme (Aquifex aeolicus, UniProt O67572); chain MLRSSLLPFSYLYEKIINFRNTLYDKGFLKIKKLPVPVISVGNLSVGGSGKTSFVMYLADLLKDKRVCILSRGYKRKSKGTLIVSEYGNLKVSWEEAGDEPYLMAKLLPHVSVVASEDRYKGGLLALEKLSPEVFILDDGFQHRKLHRDLNILLLKKKDLKDRLLPAGNLREPLKEIRRADALVLTYQEVEPFEFFTGKPTFKMFREFCCLLNSDFEEVPFDILKEREVIAFSGLGDNGQFRKVLKNLGIKVKEFMSFPDHYDYSDFTPEEGEIYLTTPKDLIKLQGYENVFALNFKVKLEREEKLKKLIYRIFY
UniProt F8G0P2, sequence (whole entry, unmodified, looked up): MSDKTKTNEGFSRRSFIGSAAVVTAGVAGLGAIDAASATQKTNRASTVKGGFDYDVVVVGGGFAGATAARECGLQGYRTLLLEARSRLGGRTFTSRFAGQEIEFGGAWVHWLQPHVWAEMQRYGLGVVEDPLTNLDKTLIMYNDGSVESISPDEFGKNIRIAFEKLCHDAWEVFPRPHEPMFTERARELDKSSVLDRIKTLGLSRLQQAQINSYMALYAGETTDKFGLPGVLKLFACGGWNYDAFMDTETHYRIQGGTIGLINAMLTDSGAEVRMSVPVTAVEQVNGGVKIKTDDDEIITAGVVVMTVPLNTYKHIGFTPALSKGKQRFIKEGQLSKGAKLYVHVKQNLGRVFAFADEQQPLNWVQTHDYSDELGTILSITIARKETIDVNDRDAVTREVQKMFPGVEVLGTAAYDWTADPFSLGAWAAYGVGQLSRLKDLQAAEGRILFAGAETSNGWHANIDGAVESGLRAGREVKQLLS
UniProt P01317, sequence (whole entry, looked up): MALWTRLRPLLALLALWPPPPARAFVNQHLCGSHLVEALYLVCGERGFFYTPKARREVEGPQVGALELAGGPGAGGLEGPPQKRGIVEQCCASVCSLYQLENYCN
UniProt P41146, sequence (whole entry, looked up): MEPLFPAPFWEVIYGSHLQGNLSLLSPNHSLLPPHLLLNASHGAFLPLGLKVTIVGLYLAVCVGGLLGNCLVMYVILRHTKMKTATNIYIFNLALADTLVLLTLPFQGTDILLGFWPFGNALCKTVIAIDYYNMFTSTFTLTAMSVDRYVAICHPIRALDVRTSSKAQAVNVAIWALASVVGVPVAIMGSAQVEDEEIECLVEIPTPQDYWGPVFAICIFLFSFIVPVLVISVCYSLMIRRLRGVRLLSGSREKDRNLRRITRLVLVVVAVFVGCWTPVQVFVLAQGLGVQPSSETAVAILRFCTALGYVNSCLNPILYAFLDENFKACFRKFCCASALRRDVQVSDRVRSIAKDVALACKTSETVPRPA
UniProt P47871, sequence (whole entry, looked up): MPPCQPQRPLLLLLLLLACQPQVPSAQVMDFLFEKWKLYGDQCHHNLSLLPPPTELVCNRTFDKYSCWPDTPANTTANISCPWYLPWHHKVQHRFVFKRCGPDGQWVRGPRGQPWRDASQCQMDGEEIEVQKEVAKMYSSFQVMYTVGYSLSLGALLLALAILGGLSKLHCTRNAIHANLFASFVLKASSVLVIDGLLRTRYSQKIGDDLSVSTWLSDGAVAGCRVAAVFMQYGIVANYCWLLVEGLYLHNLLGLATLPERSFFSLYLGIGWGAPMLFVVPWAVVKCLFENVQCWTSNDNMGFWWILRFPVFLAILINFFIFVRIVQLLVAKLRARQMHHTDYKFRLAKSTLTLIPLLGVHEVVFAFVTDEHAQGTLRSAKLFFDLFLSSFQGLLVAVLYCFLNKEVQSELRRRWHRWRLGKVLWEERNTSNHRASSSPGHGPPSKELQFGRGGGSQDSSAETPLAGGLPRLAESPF

nicA2 T250V/T381V (Pseudomonas putida)
kcat (CN1CCC[C@H]1c1cccnc1; steady-state kinetics; pH 7.4, 22 °C): 0.0259 ± 0.0077 s⁻¹

glucagon mature, free N-terminus, free C-terminal acid
EC50 (GCGR (Homo sapiens, UniProt P47871); CRE luciferase reporter; HEK293): 0.03 nM

dmhA S133T (Campylobacter jejuni)
kcat (Nc1nc2c(ncn2[C@@H]2O[C@H](COP(=O)(O)OP(=O)(O)O[C@H]3O[C@H]([C@H](O)CO)[C@@H](O)[C@H](O)[C@@H]3O)[C@@H](O)[C@H]2O)c(=O)[nH]1; steady-state kinetics; pH 7.5, 30 °C): 0.37 ± 0.01 s⁻¹

hdhb G39D/R40L/R41N/T17A (Clostridium sardiniense)
kcat (NC(=O)c1ccc[n+]([C@@H]2O[C@H](COP(=O)(O)OP(=O)(O)OC[C@H]3O[C@@H](n4cnc5c(N)ncnc54)[C@H](O)[C@@H]3O)[C@@H](O)[C@H]2O)c1; steady-state kinetics; pH 8, 25 °C, cofactor varied): 0.75 ± 0.03 s⁻¹

nicA2 (Pseudomonas putida, UniProt F8G0P2)
kcat (CN1CCC[C@H]1c1cccnc1; steady-state kinetics; pH 7.4, 22 °C): 0.00611 ± 0.0022 s⁻¹

insulin
β-sheet content (Insulin (INS, Bos taurus, UniProt P01317); circular dichroism; 300 min): 35.5%

dmhA Y300F (Campylobacter jejuni)
kcat (Nc1nc2c(ncn2[C@@H]2O[C@H](COP(=O)(O)OP(=O)(O)O[C@H]3O[C@H]([C@H](O)CO)[C@@H](O)[C@H](O)[C@@H]3O)[C@@H](O)[C@H]2O)c(=O)[nH]1; steady-state kinetics; pH 7.5, 30 °C): 0.082 ± 0.002 s⁻¹

hdhb E18D/G39D/R40L/R41N/T17A (Clostridium sardiniense)
kcat (NC(=O)c1ccc[n+]([C@@H]2O[C@H](COP(=O)(O)OP(=O)(O)OC[C@H]3O[C@@H](n4cnc5c(N)ncnc54)[C@H](O)[C@@H]3O)[C@@H](O)[C@H]2O)c1; steady-state kinetics; pH 8, 25 °C, cofactor varied): 0.08 ± 0.01 s⁻¹

B1 (enzyme)
kcat (CCCCCCCCCCC[C@@H](O)CC(=O)N[C@H]1[C@H](OC[C@H]2O[C@H](OP(=O)(O)O)[C@H](NC(=O)C[C@H](O)CCCCCCCCCCC)[C@@H](OC(=O)C[C@H](O)CCCCCCCCCCC)[C@@H]2O)O[C@H](CO)[C@@H](O)[C@@H]1OC(=O)C[C@H](O)CCCCCCCCCCC; steady-state kinetics; pH 8.5, 30 °C, apparent): 9.2 ± 0.1 s⁻¹

Aβ42, N-terminal Atto 488
mean oligomer size (itself; single-molecule fluorescence burst analysis; 10 µM, pH 7.5, 37 °C, early aggregation, labeled peptide alone, before growth phase): 3.5 ± 0.24 N¯phot,mon

nociceptin
EC50 (OPRL1 (Homo sapiens, UniProt P41146); cAMP, agonist, HitHunter cAMP; CHO-K1): 0.19 nM

Cj1438c (Campylobacter jejuni, UniProt Q0P8H6)
kcat (Nc1ncnc2c1ncn2[C@@H]1O[C@H](COP(=O)(O)OP(=O)(O)OP(=O)(O)O)[C@@H](O)[C@H]1O; steady-state kinetics; pH 8, 25 °C, apparent): 2.9 ± 0.1 s⁻¹

A few entries again:
Cj1438c (Campylobacter jejuni, UniProt Q0P8H6)
kcat (Nc1ncnc2c1ncn2[C@@H]1O[C@H](COP(=O)(O)OP(=O)(O)OP(=O)(O)O)[C@@H](O)[C@H]1O; steady-state kinetics; pH 8, 25 °C, apparent): 2.9 ± 0.1 s⁻¹
